Results collected from several papers.
Every numbered part comes from another study and shows a few of its results, in no order. Changes are numbered by the printed parent chain.

Study 1 — technique: RNA Bind-n-Seq; molecule type: RNA; matrix: in vitro; tested at: 200 nM; setting: whole 134-nt RNA, ends assumed; added: 150 mM LiCl; relative to: input library; direction: higher = stronger binding; each molecule: 7-deaza-guanosine replaces G
Target: Ras GTPase-activating protein-binding protein 1, full length (G3BP1, Homo sapiens, UniProt Q13283)
Sequence of UniProt Q13283 (whole entry, looked up): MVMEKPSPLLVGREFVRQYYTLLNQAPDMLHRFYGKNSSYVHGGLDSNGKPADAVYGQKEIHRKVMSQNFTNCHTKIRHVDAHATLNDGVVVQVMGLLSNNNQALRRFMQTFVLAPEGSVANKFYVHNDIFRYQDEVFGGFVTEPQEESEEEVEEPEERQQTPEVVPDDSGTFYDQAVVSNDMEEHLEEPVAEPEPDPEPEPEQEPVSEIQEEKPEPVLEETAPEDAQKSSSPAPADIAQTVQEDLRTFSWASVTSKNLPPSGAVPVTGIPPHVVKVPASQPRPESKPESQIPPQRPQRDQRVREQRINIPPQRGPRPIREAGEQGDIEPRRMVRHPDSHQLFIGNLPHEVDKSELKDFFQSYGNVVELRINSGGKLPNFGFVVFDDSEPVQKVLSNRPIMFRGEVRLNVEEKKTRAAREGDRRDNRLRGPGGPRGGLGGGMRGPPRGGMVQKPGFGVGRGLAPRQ
Oligonucleotide | log2 enrichment
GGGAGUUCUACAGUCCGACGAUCAAGUCCUGUGCUACACAUCGUAUGUACCGAAUCGGUUUUUUUGGUUUGGUUUUUGGAAAGUAUUAUGUUACGCCGUUCGGAUCUGCACUUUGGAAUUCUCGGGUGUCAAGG | -1.9
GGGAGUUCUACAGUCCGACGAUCACCAUGCAGGUGGGCAUCUUUGGGAAGUGGGGCAAGGGGGGGAUAGGGAGGGGGGUAACACUUUGGGAACAGGUGGUCCCAGGUAAAUUCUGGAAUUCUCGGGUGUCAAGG | 0.255
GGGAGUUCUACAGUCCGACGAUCCAAGUCCUGUGCUACACAUCGUAUGUACCGAAUCGGGCCCGGCCCGGGCCCGGGGAAAGUAUUAUGUUACGCCGUUCGGAUCUGCACUUCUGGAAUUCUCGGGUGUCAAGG | -1.22
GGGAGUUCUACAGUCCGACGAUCGCAGGAAGUAAAAACAAAUGGAAAUGCUUCGGAUAGUGGCAGGGGUGGGGGUUGCUAAGGAAAGGGUGGGAUGGGCGUGGGUAAAGAGUUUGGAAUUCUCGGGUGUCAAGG | 0.25
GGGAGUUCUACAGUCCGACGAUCGCAGGAAGUAAAAACAAAUGGAAAUGCUUCGGAUAGUGUCAGGGGUGGGGGUUGCUAAGGAAAGGGUGGGAUGGGAGUGGGUAAAGAGUUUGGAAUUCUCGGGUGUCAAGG | 0.211
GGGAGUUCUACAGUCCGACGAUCGUCCUGUGCUACACAUCGUAUGUACCGAAUCGGGGAAAAAGGGGAAAAAGGAAAAAGGAAAGUAUUAUGUUACGCCGUUCGGAUCUGCACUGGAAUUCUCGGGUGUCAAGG | 0.147
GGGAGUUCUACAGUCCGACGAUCCACAGACAACACGCACCCACACAGACACAGGGGGAAGGGGUUGGGAUGGGGACAGGGUGCACAGCAGGGCGGGGUAGGACCCCAGCCCCUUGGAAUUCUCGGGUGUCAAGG | -0.14
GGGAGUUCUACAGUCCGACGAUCUCCUCAAGUCCUGUGCUACACAUCGUAUGUACCGAAUCGGGUGGUGGGUGGGAAAGUAUUAUGUUACGCCGUUCGGAUCUGCACUUCCAGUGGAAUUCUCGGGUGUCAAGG | 0.719

Study 2 — technique: protein binding microarray; molecule type: double-stranded DNA, one strand shown; matrix: in vitro; tested at: not given; relative to: not given; direction: higher = stronger binding
Target: Histone acetyltransferase KAT6A, both winged helices, GST fusion (KAT6A, Homo sapiens, UniProt Q92794, residues 1-181)
Setting: 8-mer, flanks averaged, mean of 2 arrays, mostly near background
Residues (chain): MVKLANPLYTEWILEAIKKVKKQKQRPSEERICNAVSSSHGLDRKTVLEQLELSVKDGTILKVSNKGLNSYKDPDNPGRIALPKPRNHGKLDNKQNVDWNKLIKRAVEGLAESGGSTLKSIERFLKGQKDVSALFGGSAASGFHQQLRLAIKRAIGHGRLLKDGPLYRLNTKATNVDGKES
Oligonucleotide | E-score
AGACCATA | -0.103
ATCGCGGC | 0.332
TACACTCA | -0.172
AATAGGTA | -0.258
GTGTCCTA | 0.0717
CGGAGCTA | -0.0581

Study 3 — target: CCNE1, cyclin fold, Cln2 fusion (human); technique: yeast growth competition, sequencing; matrix: yeast; setting: strong parent motif; relative to: not given; direction: higher = stronger binding
Starting sequence: BRCA2 docking peptide (human); PSIKRNLLNEFDR; partner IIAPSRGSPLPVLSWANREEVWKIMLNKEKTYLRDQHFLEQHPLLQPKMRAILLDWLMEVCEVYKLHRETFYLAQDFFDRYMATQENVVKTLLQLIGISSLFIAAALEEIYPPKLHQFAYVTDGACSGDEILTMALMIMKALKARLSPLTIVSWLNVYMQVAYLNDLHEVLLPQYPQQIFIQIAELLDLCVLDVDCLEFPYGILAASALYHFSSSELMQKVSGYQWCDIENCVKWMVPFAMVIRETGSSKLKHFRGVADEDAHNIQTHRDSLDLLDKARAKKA
Variant | normalised enrichment score
S2N | 1.17
R5S | 0.778
L8I | 1.78
D12M | 1.53
R5K F11L | -0.37
F11V | 1.05
I3W | 4.3

Mixed results
Molecule | target | assay | system | setting | how to read | endpoint | result
PhoQ, residues 284 288 289 292 302 303 SLANKL | PhoP, residues 12 14 15 18 19 LWHCS (Escherichia coli, UniProt P23836) | Sort-seq, measured: YFP reporter | E. coli | PhoQ-PhoP variant library, added: 10 µM Mg2+ | relative to: high Mg2+ state, higher = stronger signaling | fold induction | 0.677

Excerpt of the above (study 2):
Oligonucleotide | E-score
TACACTCA | -0.172
AATAGGTA | -0.258
